Results gathered from unrelated publications.
Numbered parts are unrelated; each lists some results of a single study.

Block 1 — technique: aptamer microarray, sandwich; molecule type: DNA with 2'F-ANA; sample: in vitro; concentration: 200 nM; with: Cy3 exosite-II aptamer, 400 nM; direction: higher = stronger binding; sequence: GGTTGGTGTGGTTGG
Target: Prothrombin, mature alpha-thrombin (F2, Homo sapiens, UniProt P00734)
Setting: whole 15-mer aptamer, many near background
Modification	mean fluorescence intensity [a.u.]
2'F-ANA at 1 2 4 8 9 12 15	333
2'F-ANA at 3 4 7 8 10 11 13	332
2'F-ANA at 2 3 5 7 8 10 12 13	59.5
2'F-ANA at 1 2 3 4 5 7 10 11 12 13 15	53.6
2'F-ANA at 1 3 4 6 9 10 13 14 15	53.6
2'F-ANA at 1 2 3 4 5 7 8 9 10 11 12 13 15	79.1
2'F-ANA at 1 3 6 7 8 9 10 11 12 13	138
2'F-ANA at 4 6 10 12 13 15	103
2'F-ANA at 4 5 6 7 9 13 14 15	44.7
2'F-ANA at 1 2 3 4 6 9 10 12	76.4
2'F-ANA at 3 4 5 6 9 11 14 15	58.1
2'F-ANA at 1 2 4 5 6 7 10 11 14 15	46
2'F-ANA at 2 3 5 7 8 9 10 13 14	60.2
2'F-ANA at 4 6 7 14 15	88.6
2'F-ANA at 4 5 6 7 10 11 14	47.4
2'F-ANA at 3 6 7 11 12 15	1190
2'F-ANA at 3 4 7 9 10 11 12 14	201
2'F-ANA at 1 3 4 9 11	170
2'F-ANA at 2 3 4 5 6 8 10 11 14 15	51.2
2'F-ANA at 1 5 8 10 11 12 13 15	51.6

Block 2 — technique: RNA Bind-n-Seq; molecule type: RNA; sample: in vitro; concentration: 365 nM; relative to: no-protein control; direction: higher = stronger binding
Target: RNA binding protein fox-1 homolog 2, RRM domain, GST-SBP tag (RBFOX2, Homo sapiens, UniProt O43251-10, residues 100-194)
Setting: natural RNA segment, single round, ends assumed
All sequences stand within: GGGAGUUCUACAGUCCGACGAUC … UGGAAUUCUCGGGUGCCAA
Target sequence (chain): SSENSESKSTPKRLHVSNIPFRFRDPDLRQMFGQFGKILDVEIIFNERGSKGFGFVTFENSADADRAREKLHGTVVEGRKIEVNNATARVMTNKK
Sequence	RBNS enrichment (R)
UGUGUGGAGGUGGCGGGAGGGGUCAGUGACUCUGGGGGUCUCCUCAGUGACCCCCAUACCUCAUCAUGAACCCUUGGGUAGCUUGAUUCUGCCUACCAUCCAGGAAAACU	0.624
GGGUGAAGCCAUCCCAAGGCUGACAGCUCAGUCUUCACCUUGCCUCUGGCCUUGUAUUUCACACCCUGCUCAGUAUGGCUAGCCAGCAGUCCUGAGUAGGAGUCCAGGAC	0.238
GGCGGCCAAGCACAAACUGGGGGAGAGGAGGCCGCCAGCCCGGAGGCUGCAGCCCAGAAACUCUACCUCAUCCACACUGGUGCAGGGAGCCCUCCUUGAACUGACCUUUG	0.529
UUUUGUUUAUAAAGAUGUUCAGAUUUCUUAGUAACUGUAUUAAAUGGUUAAUUAAAACUGUGAAUUUUUGUGUAACUAGUUUCAGAGUGUUAUUAAAUAUGAUAAAAUGC	0.793
AUCUGGAAGGAUUCUCACUCGUAUUUCCCACCCCUAGUGGCCAGAGGAGGGAGGGGCACAGUGAAGAAGGGAGCCCACCACCUCUCCGAAGAGGAAAGCCACGUAGAGUG	0.891
UCACAGUGUGGUCAGGGCUGCGCGUGCUGGAGGCCCUCCUGCCUGGGCCUUGUGGGGCAAAUAUUGGGUCCCCAGGCUGGAAAGAUGGACAGAGGCCCAAUGGGUGAAGG	1.05
AUAAACUAUAAACUUAAGGGCAAGGAGUUUAUUACAAUGUAUCUUUAUUAAAACAAAAGGGUGUAUAGUGUUCACAAACUGUGAAAAUAGUGUAAGAACUGUACAUUGUG	0.423
AACAAGGACAAAUUCCUGCUACUAAGACAUGCUGUUAACUCAGUCUGACUGGAAGAAUUUAGGACCACUGCAUCCUGUCUUAAUCCAAGGUACUGGAAAACCUUCCACAU	0.435
GUCGUGAUGGAAAUAAACCUGAACCUGUUGCCCAGUACCAGGGCCUCUGCUGUUUGGUCUUCACUCUCUCUUCCUUGGAGGGAAAGCUACAAGAGACUCUCUUUUUAAUU	0.223
CAAAUAGUUUAAUGUUUUAGUCAGAGAAAAAAAAAUAUACAAUUAUAUAAUAUCUCAUUUAAUAAGUUUAAUACAUACAAAGAUAAUCUAUAUAUUUUACCAAUUUAAUG	1.11
ACAUGCCAAGAUUCUCAUGAGUUUUCUUACUUUGUCAUCCAUGUUCUUUUUCUAUUUGUAGGUCAAAGACAAGUGCCUUCUAUGGCAUGGGAAAGGGCUUUAUUCUUAUA	0.435
CUAUCAGGUCUACGACAGCAUUUUGAAAAACUACAAGACUGGUCCAGUACCCUUCAACCAUGCUGUGAUCGGUGCAAGUCAAGAACUCUUAACUGGAAGAAAUUGUAUUG	1.42

Block 3 — technique: universal PBM; molecule type: double-stranded DNA, one strand shown; sample: in vitro; concentration: not given; direction: higher = stronger binding
Target: Sal-like protein 4, full length isoform B (SALL4, Homo sapiens, UniProt Q9UJQ4-2, residues 1-616)
Setting: 8-mer, flanks averaged, mean of replicates
Sequence	E-score
AGTAGCCA	-0.0819
ACGGGCTC	-0.347
AAACTAGT	0.077
TTCTCAAA	0.268
ACCAGCAG	-0.25
CAATCGTG	0.0915
CTGGACCC	-0.275
GTTATCCA	0.118
ACATCGCT	0.0133
TAATCGAA	0.159
GTTGCTAA	0.1
GAGTCCCC	-0.276
CTGTCCCA	-0.0606
CCGGTAGG	-0.301
CGAAAACA	0.0194
ATGGGGTA	0.0468
AGAGCATA	0.188
ACCAGACA	0.0432
TGTGAACA	0.0138
ACGAGTTC	-0.0241
CCACACGC	-0.207
CCGGTGCC	-0.372
ACGCAGCG	-0.324
GCGCTATA	0.206
ACAAGCAT	-0.00769

Block 4 — technique: protein-binding microarray; molecule type: double-stranded DNA, one strand shown; sample: in vitro; concentration: 2540 nM top; setting: 60-bp whole probe; with: salmon DNA 0.4 mg/ml; relative to: random background probes; direction: higher = stronger binding; all sequences stand within: GCCTAGCAC … GTCTTGATTCGCTTGACGCTGCTG
Target: Interferon regulatory factor 3, full length, phosphomimetic (IRF3, Homo sapiens, UniProt Q14653, residues 1-427, S386D/S396D/S398D/S402D/T404D/S405D)
Target sequence (chain): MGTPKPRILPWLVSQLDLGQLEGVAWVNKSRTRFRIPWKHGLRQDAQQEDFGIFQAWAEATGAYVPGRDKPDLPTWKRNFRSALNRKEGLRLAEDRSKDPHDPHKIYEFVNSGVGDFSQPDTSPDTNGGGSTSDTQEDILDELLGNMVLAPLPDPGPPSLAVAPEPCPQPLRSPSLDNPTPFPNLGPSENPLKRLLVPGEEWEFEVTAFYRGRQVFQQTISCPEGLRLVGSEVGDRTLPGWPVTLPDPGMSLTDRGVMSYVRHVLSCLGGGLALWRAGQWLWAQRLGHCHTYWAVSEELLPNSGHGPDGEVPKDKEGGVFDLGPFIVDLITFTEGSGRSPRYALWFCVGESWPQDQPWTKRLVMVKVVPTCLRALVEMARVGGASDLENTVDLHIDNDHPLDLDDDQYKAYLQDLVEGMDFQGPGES
Sequence	fitted relative affinity [z-score]
ATGTTTTTCATTTTGTTCATGTGCTAG	2.74
TCAATGTTACATTTATAACTGTGCTAG	1.11
ATAGGTTTCGGTTCCGGTTAGTGCTAG	11.1
GACGAACTGAGTAACGAGACGTGCTAG	-0.126
TTAGGTATCGGGTATCGGGTAGTGCTA	1.4
TTAGGTGCCCTTTTCCTTTAGTGCTAG	4.88
GACGGACTGGGGTATCGGGAAGTGCTA	-0.642
TTAGAACTGGGGACTGGAGTAGTGCTA	-0.924
GACGGACTGGGTTTCCGGACGTGCTAG	1.13
GACGGTTTCCTTATCCTCACGTGCTAG	7.71
GACGAACTGAATCTCGAGACGTGCTAG	0.177
GACGATATCAGTCTCGAGCCGTGCTAG	0.77
GACGGTTTCCTTCTCCTGAAGTGCTAG	10
GACGATATCGGTACTGGAGACGTGCTA	0.888
GACGGCCTGCTTATCCTGACGTGCTAG	-0.569
TTAGATATCAGTTTCGATAAGTGCTAG	4.66
TCACATTTAATTATATGACTGTGCTAG	1.14
GACGGACTGGGACTGGGGAAGTGCTAG	-0.942
TCATGTATGGATGTGTCACTGTGCTAG	-0.325
GACGGACTGAGTCTCGGGACGTGCTAG	-0.599
GAGGGTTTCCTTCTCCTGACGTGCTAG	8.13
CACCCACTCTTTCCTCACCATGTGCTA	1.01
GACGGTTTCGGACTGGGGACGTGCTAG	4.48
TTAGGTATCCTTTACCTTTAGTGCTAG	3.76
TCACATTTTCTCTTATTACTGTGCTAG	1.75

Block 5 — technique: protein-binding microarray; molecule type: double-stranded DNA, one strand shown; sample: in vitro; concentration: not given; direction: higher = stronger binding
Target: Protein C-ets-1 (ETS1, Homo sapiens, UniProt P14921, residues 1-441, K379A, full length assumed)
Setting: k-mer, scored over probes, only values ≥0.25
Residues (chain): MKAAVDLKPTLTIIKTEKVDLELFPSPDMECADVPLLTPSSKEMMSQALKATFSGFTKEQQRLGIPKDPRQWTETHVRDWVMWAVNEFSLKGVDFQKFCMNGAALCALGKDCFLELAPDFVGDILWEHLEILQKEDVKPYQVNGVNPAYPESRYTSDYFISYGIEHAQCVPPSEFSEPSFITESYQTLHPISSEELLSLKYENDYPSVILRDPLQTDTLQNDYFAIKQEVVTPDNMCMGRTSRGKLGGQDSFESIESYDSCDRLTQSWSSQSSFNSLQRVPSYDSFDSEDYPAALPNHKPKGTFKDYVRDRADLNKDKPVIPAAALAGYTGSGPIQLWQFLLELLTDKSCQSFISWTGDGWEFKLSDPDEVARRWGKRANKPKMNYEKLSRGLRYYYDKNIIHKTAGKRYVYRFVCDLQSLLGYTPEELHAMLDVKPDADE
Sequence	E-score
GATGTTGC	0.309
ATTATCAC	0.272
AATGTCGG	0.285
CCATATAC	0.336
CCCCGGTC	0.461
AATATGAA	0.257
GAAAATTA	0.26
GTTACATA	0.279
GTACAAAA	0.334
ACTATACA	0.31
TCGAACAA	0.263
AACCGGTG	0.323
GCCGGTAA	0.406
AGCACCGG	0.336
GGGCGGGA	0.396
CGACGGAC	0.335

A few entries again (block 4):
Sequence	fitted relative affinity [z-score]
GACGGACTGGGACTGGGGAAGTGCTAG	-0.942
TCATGTATGGATGTGTCACTGTGCTAG	-0.325
GACGGACTGAGTCTCGGGACGTGCTAG	-0.599
GAGGGTTTCCTTCTCCTGACGTGCTAG	8.13
CACCCACTCTTTCCTCACCATGTGCTA	1.01
GACGGTTTCGGACTGGGGACGTGCTAG	4.48
